Measurements from different studies.
Every numbered part comes from another study and shows a few of its results, in no order. Substitutions count along the parent as printed.

Block 1 — technique: RNA Bind-n-Seq; molecule type: RNA; sample: in vitro; concentration: 365 nM; reference: no-protein control; direction: higher = stronger binding
Target: RNA binding protein fox-1 homolog 2, RRM domain, GST-SBP tag (RBFOX2, Homo sapiens, UniProt O43251-10, residues 100-194)
Setting: natural RNA segment, single round, ends assumed
Constant ends, left off below: GGGAGUUCUACAGUCCGACGAUC … UGGAAUUCUCGGGUGCCAA
Target sequence (chain): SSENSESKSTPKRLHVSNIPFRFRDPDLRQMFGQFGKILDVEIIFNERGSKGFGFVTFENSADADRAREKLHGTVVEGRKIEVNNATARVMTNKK
Strand	RBNS enrichment (R)
GUAUAAAAGACAAGGUGCCCAAGGUCACAAGAACACCUCAUUGCCGACUGAAGCCAGUGUCAGGGCACCACAUACUCCUGGGGCCAGUCUACAGGAAAGAGAUGUUCUGC	0.657
GGGGUUAAUCAACCCCGCGUGUUUCUGUUUUAUUGAAAAAGCAGACAUUUUUUUUUAAAUGGUCACAUUUCGUGCUUCUCGGAUUUCUGAGGAAAUAUUUUGUAUUGUAU	0.591
CCGGCCUGGGCCCCCAGGAUUCUAGGACCCCCAGGCAGCCCCUUGGACUGGUCCCGGGUGCCUUCCAAGCACAGUCUCCAUGCUCCCAGAUUCUCGACCUUCCCCCGGCC	0.178
CCGGGGGCUCUGGGGUUAGAGCCUGUUGGAAACCAGAGUAGAUUAAAGUUAUUUAAGAAUAAAAAGAACUUUGGCUAUGAGAUGUAAUCACCUUGCCUUCCUCUCUAGCA	1.82
ACCAAAUGUGCAUUGAAUACUCUGAAACCGAAGGGACUGGAUCUGCAGGUGGGAUGAGGGAGACAGACCACUUUUCUAUAUUGCAGUGUGAAUGCUGGGCCCCUGCUCAA	2.09
CAGGGUUGGAUCCAUAAGGCUUUAAUCUGGCCCUGAAAGCAGUGUUGCCGCUUCAGACAGUACUGCGAGCAAUGGCUGCCUUGUCGGAGUGAGUGUGUAGCUGGACACCU	0.314
CCUUCCUGCUUUUCACCAGGAACUCUAGACUGGACGCAGUCUUCUUCCUACUGGCUGGGGUUUCUCCCUCACUCUGCCUCCCAAACACAAUAAAUACAUAGUUGCCCACC	0.361
CAUACUAUUAGGCACACUUUCCCCUUAGAGCCCCCUAAGUUUUUCCCAGACGAAUCUUUAUAAUUUCUUUCCAAAGAUACCAAAUAAACUUCAGUGUUUUCAUCUAAUUC	0.895
UUGCAUAGAGAGAAAUGAUUGACAGUAAGUUUAUUGUUAAUGGUUCUUACAGAGUAUCUUUAAAAGUGCCUUAGGGGAACCCUGUCCCUCCUAACAAGUGUAUCUCGAUU	0.253
AGGUCAUUAUUUUGUUGUACCAAAGUUCUAGUGGCUUCAGAAAUCAUAGCAUCCAAUGAUUUUUUGGUGUCUGGCUAUGAAUACUAUGGUUGAGAAUUGUAUUCAGUGAU	0.818
UCUGAAACCAGUGUUAGGGAAGGGCCUGCCACAGCCUCCCCUGCCAGGGCAGGGCCCCAGGCAUUGCCAAGGGCUUUGUUUUGCACACUUUGCCAUAUUUUCACCAUUUG	0.533
GUGGGUGUGCCGGGUGGGGUGUGUGUGAUCAAAGGACAAAGACAGUAUUUUGACAAAAUACGAAGUGGAGAUUUACACUACAUUGUACAAGGAAUGAAAGUGUCACGGGU	0.789

Block 2 — technique: DHFR PCA, deep sequencing; sample: yeast; with: (+)-ABA 710 µM; reference: wild-type fitted maximum; direction: higher = stronger binding
Target: ABI1, truncated, D143A, DHFR fusion (Arabidopsis thaliana)
Setting: methotrexate growth selection, single substitutions
Starting sequence: PYL1, truncated, DHFR fusion (Arabidopsis thaliana); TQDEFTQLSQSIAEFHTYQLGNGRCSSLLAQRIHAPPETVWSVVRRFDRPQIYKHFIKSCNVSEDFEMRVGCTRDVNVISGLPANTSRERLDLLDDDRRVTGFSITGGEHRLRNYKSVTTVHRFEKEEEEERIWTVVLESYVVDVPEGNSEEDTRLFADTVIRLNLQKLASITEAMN
Variant	relative binding score [%]
C60R	17.1
A30W	99.7
T106S	93.1
M68L	105
L29R	91.5
G21P	102
V78W	38.4
S26W	96.1
G108P	24.7
L169I	60.2
S59Y	91.8
W134C	110
D95I	91.7
E127M	106
H122N	92.9
R46Q	105
V161N	30.8
R111E	66.7
N61C	110

Block 3 — technique: RNA Bind-n-Seq; molecule type: RNA; sample: in vitro; concentration: not given; setting: RNA with constant flanks, ends assumed; reference: input RNA pool; direction: higher = stronger binding
Target: RING finger protein unkempt homolog, zinc fingers 1-6, GST-SBP tag (UNK, Homo sapiens, UniProt Q9C0B0, residues 30-357)
Constant ends, left off below: GGGAGUUCUACAGUCCGACGAUC … CAACAGAGGAUUGAGCAUCA
Residues (chain): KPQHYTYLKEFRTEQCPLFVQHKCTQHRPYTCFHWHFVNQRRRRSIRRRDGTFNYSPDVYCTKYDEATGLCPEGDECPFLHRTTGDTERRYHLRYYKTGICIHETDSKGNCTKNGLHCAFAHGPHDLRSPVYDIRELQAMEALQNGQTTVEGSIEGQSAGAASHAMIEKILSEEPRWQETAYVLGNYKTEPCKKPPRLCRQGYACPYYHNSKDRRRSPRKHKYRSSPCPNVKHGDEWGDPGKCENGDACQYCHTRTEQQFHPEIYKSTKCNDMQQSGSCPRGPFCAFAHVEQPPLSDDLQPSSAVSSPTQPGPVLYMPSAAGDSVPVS
Strand	bound/input enrichment [ratio]
UAAACAAUCUUUUCUUUUUUUGUGGUUGUGUACUCAUUAUUGCUUGUUCGUCUUUUGCAAUUCCGAUAAAUGAUAUAACAUUAAACUCAAGGUGGUUGAGUUGCAGUAGGGAGUCGGAAG	0.182
CAGGUACAAGAGCAGAAGGCACAUCUUAGAGCUGCACAAGACCGUGUCCUUUCCCCCGAAACCCGUGUCAAUGAAUUAAAUAGUCAAUUAAAUGAAAGCAAGGAGAAGGUCUCCCAGCUU	2.81
GACAGUUGGUAACUAGGUUCUCUGACCUUUGUUCUACAGGCAGAUCCAGCAAACCCUUUGCCGCACUGUAAAUACUUUGGCUUCGAUAAUGUUCUUAUUACUCUAACCAAUCAUAACUGG	0.072
AUCUCCAAGUUUAAAAAGUUUGAGGUACAGAGGGAAGGCCAGAUUUUUUUAAUGAAAUUAUACCGAUCCGAUCUCAGUAUUUAAACUGUUCCUCAAUUUUGUGAGGCUGUGUUGGAAAUA	0.476
GCUGCCUCUAUCUUGUUUUUUGUUUUUUCUUCUGGGGGGGGUCUAGAACAGUGCCUGGCACACCGCCGGCGCUCAAUAAAUACUUGUUUGUUGAAUGUCUCCUCUCUCUUUCCACUCUGG	0.784
GCUUUUCAAGCCAAGGAUGUGGAAGGAUCUACUUCUCCUCAAAUAGGAGAUAAGGUUGAAUUCCGUAUUAGUGACAAACAGAGGCCUGGACAGCAGGUUGCAACUUGUGUGCGACUUUUA	0.181
AUGAGAAACAGUAUCUUAGCCCAAGUUCUGGAUCAGUCGGCCCGGGCCAGGUUAAGUAACUCCGCACUUGUAAAGCCUGAAAAAACUAAAGCAGUAGAGAAUUACCUUAUACAGAUGGCA	0.533
UGGUAUGGCCUUGGGCAGACUUACGAAAUCCUUAAAAUGCCAUUUUAUUGCCUUUAUUAUUACCGACGGGCCCACCAGCUUCGUCCCAAUGAUUCUCGCAUGCUGGUUGCCUUAGGAGAA	0.197
GCUCUGGGCUUUUCUGAUGUGGAUCACACCUAUGCUCAAAGAACUCAGCUCUUUGACACCUCCGUAAAUUUCUUUCCUGACAGCAUGACUCCUCCUAAAGGCAACCUGGUAGACCUCAUC	0.405
UCCGCACUGGAGAACAUGCUUUUUUUCAACAGUCCUUCUGUGGGCCCCAAUGCUCCCAAGACCGAGGACUUGAAAUGGCAUUCUGCAUUCUUCAGGAAACAAAUGGGCACUUCCUUGGUU	0.144
AAGUCAAUGCAGUCCCACUUACUCAAGCUGCAGCUGAAAGGCUAUCCCAGUACGUGUUGGCCGUUCCUGAGAGAGUUAUAGCUGGUGUUGCCUUGUGGUCUACCCCUUGUUUCAGGCCUC	0.101

Block 4 — technique: Sort-seq; item: YFP reporter; sample: E. coli; setting: PhoQ-PhoP variant library; with: 10 µM Mg2+; reference: high Mg2+ state; direction: higher = stronger signaling
Substance: PhoQ, residues 284 288 289 292 302 303 NLSRDF
target	fold induction
PhoP, residues 12 14 15 18 19 VGHWL (Escherichia coli, UniProt P23836)	7.71
PhoP, residues 12 14 15 18 19 NFFVT (Escherichia coli, UniProt P23836)	11.2
PhoP, residues 12 14 15 18 19 LHHYF (Escherichia coli, UniProt P23836)	3.1

Block 5 — technique: protein binding microarray; molecule type: double-stranded DNA, one strand shown; sample: in vitro; concentration: not given; reference: not given; direction: higher = stronger binding
Target: Histone acetyltransferase KAT6A, winged helix 2, GST fusion (KAT6A, Homo sapiens, UniProt Q92794, residues 85-181)
Setting: 8-mer, flanks averaged, mean of 2 arrays, mostly near background
Target sequence (chain): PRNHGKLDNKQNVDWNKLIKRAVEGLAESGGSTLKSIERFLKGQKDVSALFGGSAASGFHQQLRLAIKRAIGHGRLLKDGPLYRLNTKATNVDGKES
Strand	E-score
AGTTCCGG	0.023
CTCATACC	0.0131
CGATCACG	0.104
CTATGGAG	-0.18
CCTCAGGC	-0.0568
AACAGTGG	-0.0556
CAGCGACC	0.147
GAACTTCC	-0.147
AAACCGTG	-0.0321
GGAGAACA	-0.0486
CGAGTAAG	0.0742
CTTTCCAC	-0.024
CCTAACAA	0.0805
ATTAGAAG	-0.0502
ACTACAAC	-0.0311
AAGAACAA	0.111
AAGCTGGG	0.0144
CGTGAAAG	-0.032
CGTCCCAG	-0.0524
AATGTAGT	-0.203
GCTCGACC	0.05
TACCATCA	-0.182
ACCCAGCC	0.0508
AGACTCTC	-0.129
AACTCTAG	-0.273

Block 6 — target: CCNA1, cyclin fold, Cln2 fusion (human); technique: yeast growth competition, sequencing; sample: yeast; setting: strong parent motif; reference: not given; direction: higher = stronger binding
Starting sequence: E2F1 docking peptide (human); PPVKRRLDFETDH
Variant	normalised enrichment score
PPVKRRLNFETDH [D8N]	1.84
PPVKRRLDGETDH [F9G]	0.131
PPVKRRLDFEMDH [T11M]	1.89
PPFKRRLDFETDH [V3F]	0.391
PPVKRRLDWETDH [F9W]	0.915
PPEKRRLDFETDH [V3E]	0.237
PPVKRALDFETDH [R6A]	1.48
PPVKRCLDFETDH [R6C]	1.68
PQVKRRLDFETDH [P2Q]	2.13
PPVKTRLDFETDH [R5T]	0.294
PPVKRRLDRETDH [F9R]	0.43
PPVKGRLDFETDH [R5G]	0.207
PPVKRRLDFNTDH [E10N]	2
PPVKRGLDFETDH [R6G]	0.669
PKVKRRLDFETDH [P2K]	2.09
PPWKRRLDFETDH [V3W]	0.661

A few entries again (block 2):
Variant	relative binding score [%]
L29R	91.5
G21P	102
V78W	38.4
S26W	96.1
G108P	24.7
